{"data": "Measured values gathered from unrelated publications", "target": "Mitogen-activated protein kinase kinase kinase 12 (MAP3K12, Homo sapiens, UniProt Q12852)", "note": "Each line is one published result; not all experiments were run side by side."}
{"Structure (SMILES)": "Cc1ccc(-c2c(/C=C(\\C#N)C(=O)NC(C)C)n(CCCO)c3ncnc(N)c23)cc1", "assay": "cell-free assay, competition with immobilised ligand", "conditions": "1 µM", "endpoint": "remaining binding", "result": "90%"}
{"Structure (SMILES)": "CNC1C[S+]2CC[S+]3CC[S+](C1)[Ru-4]321([N]=C=S)[n]2c3ccc(OC)cc3c3c4c(c5cc(F)c[n+]1c5c32)C(=O)NC4=O (centres unmarked)", "assay": "KinomeScan", "conditions": "0.1 µM", "scale": "reference: untreated", "endpoint": "remaining binding", "result": "92%"}
{"Structure (SMILES)": "C=CC(=O)N1CCCC(n2c(=O)c3ncccc3n(Cc3ccc(Oc4ccccc4)cc3)c2=O)C1 (centres unmarked)", "assay": "cell-free assay, competition with immobilised ligand", "conditions": "1 µM", "endpoint": "remaining binding", "result": "88%"}
{"Structure (SMILES)": "Nc1ncc2c(n1)-c1c([nH]c3ccc(C4=CCOCC4)cc13)CCC2", "assay": "binding, competition with immobilised ligand", "conditions": "1 µM", "endpoint": "remaining binding", "result": "100%"}
{"Structure (SMILES)": "C=CC(=O)N1CCc2ccc(-n3c(=O)ccc4cnc5ccc(-c6cnn(C)c6)cc5c43)cc21", "assay": "KINOMEscan", "conditions": "1 µM", "scale": "reference: DMSO control", "endpoint": "remaining binding", "result": "100%"}
{"Structure (SMILES)": "CNC(=O)C1CCN(c2cc(C)c(F)cc2NC(=O)c2ccc(-c3cc(O)ccc3C)c(C)c2)CC1", "assay": "binding, competition with immobilised ligand", "conditions": "1 µM", "endpoint": "remaining binding", "result": "76%"}
{"Structure (SMILES)": "COc1c(Cl)cccc1Nc1c(-c2ccncc2C#C[C@@]2(C)CCCN2C(=O)/C=C/CN(C)C)[nH]c2c1C(=O)NCC2", "assay": "binding, competition with immobilised ligand", "conditions": "3 µM", "endpoint": "remaining binding", "result": "77%"}
{"Structure (SMILES)": "NC(=O)C[C@H]1CCc2sc3ncnc(O[C@H]4CC[C@H](N5CCOCC5)CC4)c3c21", "assay": "enzyme activity, inhibitor", "conditions": "10 µM", "endpoint": "inhibition", "result": "5%"}
{"Structure (SMILES)": "Cc1cnc2nc1Nc1cccc(c1)COC/C=C/COCc1cc(ccc1OCCN1CCOCC1)N2", "conditions": "concentration not given, kinase construct DLK", "scale": "reference: control", "endpoint": "binding", "result": "73%"}
{"Structure (SMILES)": "COc1cc(Nc2nc(C)cc(-c3cnn4nc(OC)ccc34)n2)cc(C(F)(F)F)c1", "assay": "KINOMEscan", "conditions": "1 µM, DLK", "scale": "reference: DMSO", "endpoint": "remaining binding", "result": "92%"}
{"Structure (SMILES)": "CCn1cc(C(=O)O)c(=O)c2c(N)c(F)c(NC3CCCCC3)cc21", "assay": "kinase activity", "conditions": "0.1 µM, with: ATP at Km", "endpoint": "inhibition", "result": "8.9%"}
{"Structure (SMILES)": "CC(C)=CC1OC(C)(C)C2C=C3C(=O)C(Cl)=CC(O)C3C3C(O)C4OC4C(=O)C132 (centres unmarked)", "assay": "cell-free assay, competition with immobilised ligand", "conditions": "10 µM", "endpoint": "remaining binding", "result": "99%"}
{"Structure (SMILES)": "Cn1cc(-c2cnc3ccc(NC(=O)Nc4ccc5sccc5c4)cc3n2)cn1", "assay": "kinase binding, KiNativ profiling, measured: Lys2 peptide", "test system": "PANC-1 lysate", "conditions": "2.5 µM", "endpoint": "inhibition", "result": "15.6%"}
{"Structure (SMILES)": "CCN1CCN(Cc2ccc(C(=O)Nc3ccc(C)c(NCc4cnc5[nH]ccc5c4OC)c3)cc2C(F)(F)F)CC1", "assay": "binding, competition with immobilised ligand", "conditions": "1 µM", "endpoint": "remaining binding", "result": "100%"}
{"Structure (SMILES)": "CS(=O)(=O)Nc1cccc(-c2csc3cnc(Nc4ccc(N5CCN(CCCCCOc6cccc7c6C(=O)N(C6CCC(=O)NC6=O)C7=O)CC5)cc4)nc23)c1 (centres unmarked)", "assay": "probe labelling, inhibitor, KiNativ chemoproteomics", "test system": "MOLT-4", "conditions": "1 µM", "endpoint": "inhibition", "result": "53.5%"}
{"Structure (SMILES)": "COc1cc(Nc2nccc(-c3cnn4nc(OC)ccc34)n2)cc(C(F)(F)F)c1", "assay": "binding, competition with immobilised ligand", "conditions": "1 µM", "endpoint": "remaining binding", "result": "96%"}
{"Structure (SMILES)": "NC(=O)[C@@H](O)C[C@H]1CCc2sc3ncnc(O[C@H]4CC[C@H](N5CCOCC5)CC4)c3c21", "assay": "enzyme activity, inhibitor", "conditions": "10 µM", "endpoint": "inhibition", "result": "10%"}
{"note": "Some of these lines once more:"}
{"Structure (SMILES)": "COc1c(Cl)cccc1Nc1c(-c2ccncc2C#C[C@@]2(C)CCCN2C(=O)/C=C/CN(C)C)[nH]c2c1C(=O)NCC2", "assay": "binding, competition with immobilised ligand", "conditions": "3 µM", "endpoint": "remaining binding", "result": "77%"}
{"Structure (SMILES)": "NC(=O)C[C@H]1CCc2sc3ncnc(O[C@H]4CC[C@H](N5CCOCC5)CC4)c3c21", "assay": "enzyme activity, inhibitor", "conditions": "10 µM", "endpoint": "inhibition", "result": "5%"}
